Measured values of several laboratories.
Each numbered part is a random draw from the data of one study; scales do not carry over between parts. Positions count from the first letter of the parent shown.

Set 1
Target: Prothrombin, mature alpha-thrombin (F2, Homo sapiens, UniProt P00734)
Method: aptamer microarray, sandwich
Form: DNA with 2'F-ANA
Matrix: in vitro
Tested at: 200 nM
Notes: whole 15-mer aptamer, many near background
With: Cy3 exosite-II aptamer, 400 nM
Reading: higher = stronger binding
Measurement: mean fluorescence intensity
Strand: GGTTGGTGTGGTTGG
2'F-ANA at 4 6 7 8 15: 342 a.u.
2'F-ANA at 4 7 9 10 11 12 15: 105 a.u.
2'F-ANA at 3 4 6 7 9 10: 288 a.u.
2'F-ANA at 2 4 5 7 9 12 13 15: 89.7 a.u.
2'F-ANA at 3 4 5 6 7 10 11 14 15: 47.9 a.u.

Set 2
Target: RING finger protein unkempt homolog, zinc fingers 1-6, GST-SBP tag (UNK, Homo sapiens, UniProt Q9C0B0, residues 30-357)
Chain of UniProt Q9C0B0 (30-357, looked up): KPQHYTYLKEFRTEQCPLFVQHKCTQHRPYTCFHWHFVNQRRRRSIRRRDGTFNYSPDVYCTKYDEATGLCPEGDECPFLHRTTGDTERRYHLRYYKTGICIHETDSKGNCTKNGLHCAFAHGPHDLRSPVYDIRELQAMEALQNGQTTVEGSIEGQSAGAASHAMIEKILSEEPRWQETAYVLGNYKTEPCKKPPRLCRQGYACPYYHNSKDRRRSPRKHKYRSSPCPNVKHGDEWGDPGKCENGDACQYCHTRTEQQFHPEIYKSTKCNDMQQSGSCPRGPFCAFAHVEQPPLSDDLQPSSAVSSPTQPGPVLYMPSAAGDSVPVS
Method: RNA Bind-n-Seq
Form: RNA
Matrix: in vitro
Tested at: not given
Notes: RNA with constant flanks, human and mouse sites, ends assumed
Baseline: input RNA pool
Reading: higher = stronger binding
Measurement: bound/input enrichment
GGGAGUUCUACAGUCCGACGAUCAUCAUUGGUUAUGCCAGAAACCCUUCACUGAAGCAGCAGCUGUUCUCAUAUGCUAUCCUGGGAUUUGCCUUGUCUGAAGCUAUGGGUCUCUUUUGUUUGAUGGUUGCGUUCUUGAUCUUGCAACAGAGGAUUGAGCAUCA: 0.125 ratio
GGGAGUUCUACAGUCCGACGAUCUGUGCAUUUUUUCUGGGGCCAUUGUUUUUGGUUUAUUUUGUUAUUUUGUUUUGUUUUUGUUUUUUUGGUUUCAUUUUGUUUUGGGUUGGUCCAAUUUUAAAAGGAAAUACUACAAUAAAACAACAGAGGAUUGAGCAUCA: 0.999 ratio
GGGAGUUCUACAGUCCGACGAUCAAAGAACUACUGAGGCAAGGCAGCAAAUUUAGGAGAGACAUUUCAACAAUAUUGAUAGAGUUAGGAUUCCAAAUUAAAAAGAAAACUAAGACAUUAUACAUCAACAAAGCCAAUGUGUGGCAACAGAGGAUUGAGCAUCA: 9.12 ratio
GGGAGUUCUACAGUCCGACGAUCGAACAAGUAUGCCACAUCGAAGCAUGCUAAGAUCAGCACUCUACCACAGCUGAAUUCUGCACUAGUUCAAGAUUUAGCCAAGGCUGUGGCAAAGGUGUAACUUGUAAACUUGAGUUGGAGCAACAGAGGAUUGAGCAUCA: 0.42 ratio

Set 3
Target: OGT, full length, His-tagged (human)
Method: phage display, sequencing
Matrix: in vitro
Tested at: 1 µg OGT
Notes: single substitutions, 15-mer displayed peptide, unchanged parent 5.27
Baseline: input library
Reading: higher = stronger binding
Measurement: fold enrichment
Parent: peptide; GDFPVMFMPKYSIIY
Y11H: 1.26 fold
Y11A: 1.81 fold
D2Q: 5.79 fold
Y15S: 1.05 fold

Further values, each from its own experiment
PhoQ, residues 284 288 289 292 302 303 ASTSDA
fold induction (PhoP, residues 12 14 15 18 19 DLLYY (Escherichia coli, UniProt P23836); Sort-seq, measured: YFP reporter; E. coli; PhoQ-PhoP variant library, with: 10 µM Mg2+; baseline: high Mg2+ state, higher = stronger signaling): 4.39

For quick reference, copied from above (set 2):
GGGAGUUCUACAGUCCGACGAUCUGUGCAUUUUUUCUGGGGCCAUUGUUUUUGGUUUAUUUUGUUAUUUUGUUUUGUUUUUGUUUUUUUGGUUUCAUUUUGUUUUGGGUUGGUCCAAUUUUAAAAGGAAAUACUACAAUAAAACAACAGAGGAUUGAGCAUCA: 0.999 ratio
GGGAGUUCUACAGUCCGACGAUCAAAGAACUACUGAGGCAAGGCAGCAAAUUUAGGAGAGACAUUUCAACAAUAUUGAUAGAGUUAGGAUUCCAAAUUAAAAAGAAAACUAAGACAUUAUACAUCAACAAAGCCAAUGUGUGGCAACAGAGGAUUGAGCAUCA: 9.12 ratio
